Published values collected from several papers.
“And” joins repeats or separate records; there may be more than shown. ± marks the error that the study gave.
Aryl hydrocarbon receptor: Aryl hydrocarbon receptor (Danio rerio, UniProt Q9YGV3)
NF-kappa-B inhibitor alpha: NF-kappa-B inhibitor alpha (Homo sapiens, UniProt P25963)
UniProt P00519, sequence (whole entry, unmodified, looked up): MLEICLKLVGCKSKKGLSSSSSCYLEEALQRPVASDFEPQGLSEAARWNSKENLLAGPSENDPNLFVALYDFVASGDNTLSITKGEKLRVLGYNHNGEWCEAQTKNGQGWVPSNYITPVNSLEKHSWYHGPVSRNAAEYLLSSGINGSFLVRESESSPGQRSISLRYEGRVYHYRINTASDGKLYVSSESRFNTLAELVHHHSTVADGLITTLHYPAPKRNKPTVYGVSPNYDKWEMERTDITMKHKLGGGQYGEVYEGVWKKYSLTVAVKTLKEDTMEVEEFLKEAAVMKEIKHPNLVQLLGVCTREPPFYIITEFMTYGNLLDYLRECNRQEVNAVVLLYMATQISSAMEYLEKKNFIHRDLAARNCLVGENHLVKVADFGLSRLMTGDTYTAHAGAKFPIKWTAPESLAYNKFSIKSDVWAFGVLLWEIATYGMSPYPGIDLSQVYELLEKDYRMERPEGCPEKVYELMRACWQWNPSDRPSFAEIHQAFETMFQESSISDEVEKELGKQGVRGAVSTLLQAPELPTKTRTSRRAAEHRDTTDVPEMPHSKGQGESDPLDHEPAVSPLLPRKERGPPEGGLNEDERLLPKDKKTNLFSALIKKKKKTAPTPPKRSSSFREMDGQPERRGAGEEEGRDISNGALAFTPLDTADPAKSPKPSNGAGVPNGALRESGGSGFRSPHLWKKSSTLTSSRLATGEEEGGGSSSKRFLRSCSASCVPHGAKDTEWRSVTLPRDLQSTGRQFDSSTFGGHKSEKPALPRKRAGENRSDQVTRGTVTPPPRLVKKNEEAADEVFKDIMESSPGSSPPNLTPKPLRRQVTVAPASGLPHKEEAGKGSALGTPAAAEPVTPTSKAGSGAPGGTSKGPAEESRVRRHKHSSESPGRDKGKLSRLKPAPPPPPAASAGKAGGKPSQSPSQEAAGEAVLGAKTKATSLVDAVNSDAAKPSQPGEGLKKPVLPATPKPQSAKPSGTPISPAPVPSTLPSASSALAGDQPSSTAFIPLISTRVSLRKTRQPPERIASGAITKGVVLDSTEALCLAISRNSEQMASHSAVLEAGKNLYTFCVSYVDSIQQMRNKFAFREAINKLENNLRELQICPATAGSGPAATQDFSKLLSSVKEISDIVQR
UniProt P25963, sequence (whole entry, looked up): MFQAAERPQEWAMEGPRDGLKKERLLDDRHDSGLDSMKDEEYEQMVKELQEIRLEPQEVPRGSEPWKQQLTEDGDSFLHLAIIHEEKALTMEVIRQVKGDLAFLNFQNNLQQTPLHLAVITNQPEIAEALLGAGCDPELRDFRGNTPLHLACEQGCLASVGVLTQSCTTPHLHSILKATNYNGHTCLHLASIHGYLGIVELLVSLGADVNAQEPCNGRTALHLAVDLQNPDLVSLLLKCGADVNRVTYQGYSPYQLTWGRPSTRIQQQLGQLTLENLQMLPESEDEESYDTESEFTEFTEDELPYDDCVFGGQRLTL
UniProt P20618, sequence (whole entry, looked up): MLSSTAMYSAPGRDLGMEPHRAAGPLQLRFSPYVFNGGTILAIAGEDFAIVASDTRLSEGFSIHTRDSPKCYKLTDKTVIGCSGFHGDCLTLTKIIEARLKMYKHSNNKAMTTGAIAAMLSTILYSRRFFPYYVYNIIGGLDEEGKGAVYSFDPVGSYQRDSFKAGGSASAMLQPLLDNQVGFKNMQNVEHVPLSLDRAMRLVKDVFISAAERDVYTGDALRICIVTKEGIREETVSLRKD
UniProt P28062, sequence (whole entry, looked up): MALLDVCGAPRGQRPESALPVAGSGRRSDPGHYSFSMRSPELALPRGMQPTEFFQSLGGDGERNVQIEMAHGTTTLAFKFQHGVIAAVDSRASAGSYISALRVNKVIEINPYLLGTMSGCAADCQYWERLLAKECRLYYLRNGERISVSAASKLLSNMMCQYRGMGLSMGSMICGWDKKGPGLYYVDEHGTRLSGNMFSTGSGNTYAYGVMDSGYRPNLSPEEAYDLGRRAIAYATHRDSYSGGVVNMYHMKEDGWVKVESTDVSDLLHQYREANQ
UniProt P62813, sequence (whole entry, looked up): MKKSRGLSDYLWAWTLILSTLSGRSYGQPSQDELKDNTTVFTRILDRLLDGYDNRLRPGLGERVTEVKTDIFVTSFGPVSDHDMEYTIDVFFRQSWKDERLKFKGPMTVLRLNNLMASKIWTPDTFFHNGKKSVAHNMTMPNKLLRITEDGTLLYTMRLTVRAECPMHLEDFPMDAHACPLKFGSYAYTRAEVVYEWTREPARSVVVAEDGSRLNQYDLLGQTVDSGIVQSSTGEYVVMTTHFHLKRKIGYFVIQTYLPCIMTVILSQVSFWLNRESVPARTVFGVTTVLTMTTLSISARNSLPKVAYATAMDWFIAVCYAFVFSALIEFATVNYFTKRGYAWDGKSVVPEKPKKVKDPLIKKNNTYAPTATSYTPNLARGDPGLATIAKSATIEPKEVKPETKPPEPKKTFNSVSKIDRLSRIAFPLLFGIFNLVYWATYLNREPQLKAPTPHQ
UniProt Q96GX5, sequence (whole entry, looked up): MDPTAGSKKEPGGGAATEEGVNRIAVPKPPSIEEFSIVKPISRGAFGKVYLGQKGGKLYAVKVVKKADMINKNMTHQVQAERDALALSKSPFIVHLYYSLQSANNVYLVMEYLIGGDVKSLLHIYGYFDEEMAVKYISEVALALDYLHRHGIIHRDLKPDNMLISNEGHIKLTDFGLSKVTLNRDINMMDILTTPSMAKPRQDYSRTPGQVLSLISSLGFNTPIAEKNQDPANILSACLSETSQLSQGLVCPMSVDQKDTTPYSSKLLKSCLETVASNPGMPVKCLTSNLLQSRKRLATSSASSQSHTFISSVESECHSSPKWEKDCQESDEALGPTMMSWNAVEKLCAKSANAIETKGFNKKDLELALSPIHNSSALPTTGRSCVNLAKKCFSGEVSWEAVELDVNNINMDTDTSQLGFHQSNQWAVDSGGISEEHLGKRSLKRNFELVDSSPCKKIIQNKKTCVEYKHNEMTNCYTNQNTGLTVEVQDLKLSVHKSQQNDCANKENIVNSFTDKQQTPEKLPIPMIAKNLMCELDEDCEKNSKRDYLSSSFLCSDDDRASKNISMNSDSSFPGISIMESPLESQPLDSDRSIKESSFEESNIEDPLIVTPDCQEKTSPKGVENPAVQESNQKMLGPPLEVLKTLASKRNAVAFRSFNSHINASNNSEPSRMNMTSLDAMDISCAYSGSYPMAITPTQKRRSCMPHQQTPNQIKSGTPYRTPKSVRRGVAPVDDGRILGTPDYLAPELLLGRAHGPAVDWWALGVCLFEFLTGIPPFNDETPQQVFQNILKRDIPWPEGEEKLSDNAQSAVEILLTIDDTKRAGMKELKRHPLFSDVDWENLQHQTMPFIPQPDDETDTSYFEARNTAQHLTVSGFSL
UniProt Q01105, sequence (whole entry, looked up): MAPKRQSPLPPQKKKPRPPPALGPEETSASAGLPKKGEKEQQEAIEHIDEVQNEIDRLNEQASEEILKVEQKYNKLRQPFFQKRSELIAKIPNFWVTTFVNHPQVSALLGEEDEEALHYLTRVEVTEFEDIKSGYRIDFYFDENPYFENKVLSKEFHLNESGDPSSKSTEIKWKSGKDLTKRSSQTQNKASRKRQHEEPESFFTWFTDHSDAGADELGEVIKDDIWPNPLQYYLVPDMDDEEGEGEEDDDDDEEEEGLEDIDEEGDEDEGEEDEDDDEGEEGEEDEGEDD
UniProt Q8IV63, sequence (whole entry, looked up): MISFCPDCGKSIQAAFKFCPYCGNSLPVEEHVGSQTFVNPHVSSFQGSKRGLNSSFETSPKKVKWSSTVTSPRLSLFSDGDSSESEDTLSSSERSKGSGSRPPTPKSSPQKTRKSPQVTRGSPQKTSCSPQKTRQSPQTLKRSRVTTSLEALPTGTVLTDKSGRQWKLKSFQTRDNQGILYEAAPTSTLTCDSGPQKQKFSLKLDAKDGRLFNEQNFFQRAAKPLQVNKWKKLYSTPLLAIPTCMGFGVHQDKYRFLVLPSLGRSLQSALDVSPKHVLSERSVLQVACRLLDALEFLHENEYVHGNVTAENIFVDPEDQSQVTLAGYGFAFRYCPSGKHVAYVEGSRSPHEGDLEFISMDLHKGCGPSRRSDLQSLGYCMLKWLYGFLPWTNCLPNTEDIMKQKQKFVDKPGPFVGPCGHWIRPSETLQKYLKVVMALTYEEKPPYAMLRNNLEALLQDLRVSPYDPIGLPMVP
UniProt Q60893, sequence (whole entry, looked up): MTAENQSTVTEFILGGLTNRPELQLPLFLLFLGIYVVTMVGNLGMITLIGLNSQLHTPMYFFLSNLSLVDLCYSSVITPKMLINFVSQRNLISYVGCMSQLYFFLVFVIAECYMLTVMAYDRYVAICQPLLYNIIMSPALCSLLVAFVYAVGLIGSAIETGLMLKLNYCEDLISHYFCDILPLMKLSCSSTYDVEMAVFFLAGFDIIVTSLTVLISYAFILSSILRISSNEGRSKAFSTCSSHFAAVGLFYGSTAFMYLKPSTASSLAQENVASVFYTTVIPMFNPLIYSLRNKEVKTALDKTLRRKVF
UniProt P18089, sequence (whole entry, looked up): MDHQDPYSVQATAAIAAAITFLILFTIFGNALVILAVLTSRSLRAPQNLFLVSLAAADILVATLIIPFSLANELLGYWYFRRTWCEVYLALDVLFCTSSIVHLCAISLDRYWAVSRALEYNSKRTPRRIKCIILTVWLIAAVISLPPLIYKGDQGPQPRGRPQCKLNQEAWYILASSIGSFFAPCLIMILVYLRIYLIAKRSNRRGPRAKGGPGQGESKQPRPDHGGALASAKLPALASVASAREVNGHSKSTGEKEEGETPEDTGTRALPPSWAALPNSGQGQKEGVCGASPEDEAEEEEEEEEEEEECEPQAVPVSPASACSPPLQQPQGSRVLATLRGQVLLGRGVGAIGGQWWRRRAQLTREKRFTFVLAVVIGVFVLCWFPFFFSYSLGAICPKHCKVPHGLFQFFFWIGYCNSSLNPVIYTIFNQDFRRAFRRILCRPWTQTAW

The fold change of `Cc1cccc2c1ccc1cc(C(C)C)ccc12` is reported as 1.58 (Aryl hydrocarbon receptor; reporter gene, agonist, luciferase reporter; ZF-4; 1111.11 µM; relative to: vehicle control).
The diffusion coefficient of `O=C(c1ccc(C(=O)N2CCC(N3CCCC3)CC2)c(Nc2ccccc2)c1)N1CCC(N2CCCC2)CC1` is reported as 0.284 µm2/s (Lethal(3)malignant brain tumor-like protein 3, MBT domains (Homo sapiens, UniProt Q96JM7); FRAP; human cells; 1 µM).
`CC[C@H](C)[C@H](NC(=O)[C@H](CCCNC(=N)N)NC(=O)[C@H](Cc1c[nH]cn1)NC(=O)[C@H](CCCNC(=N)N)NC(=O)[C@H](CC(=O)O)NC(=O)[C@H](CC(=O)O)NC(=O)[C@@H](NC(=O)[C@H](CC(=O)O)NC(=O)[C@@H]1CCCN1C(=O)[C@@H](N)CC(C)C)[C@@H](C)O)C(=O)N[C@@H](CCC(=O)O)C(=O)N[C@@H](CCC(=O)O)C(=O)N[C@@H](CCCCN)C(=O)N[C@@H](CCCNC(=N)N)C(=O)N[C@@H](CCCCN)C(=O)N[C@@H](CCCNC(=N)N)C(=O)N[C@H](C(=O)N[C@@H](C)C(=O)N[C@@H](CCC(=O)O)C(=O)N[C@H](C(=O)N[C@@H](Cc1ccccc1)C(=O)N[C@@H](CCCCN)C(=O)N[C@@H](CO)C(=O)N[C@H](C(=O)N[C@@H](CCSC)C(=O)N[C@@H](CCCCN)C(=O)N[C@@H](CCCCN)C(=O)N[C@@H](CO)C(=O)N1CCC[C@H]1C(=O)N[C@@H](Cc1ccccc1)C(=O)N[C@@H](CC(N)=O)C(=O)NCC(=O)N1CCC[C@H]1C(=O)O)[C@@H](C)CC)[C@@H](C)O)[C@@H](C)O` has a ΔG of -7.5 ± 0.1 kcal/mol (NF-kappa-B inhibitor alpha; binding, ITC; pH 7.5, 293 K, 50 mM NaCl).
For `Nc1ccc2ccc3cccc4ccc1c2c34`, the fold change was 1.96 (Aryl hydrocarbon receptor; reporter gene, agonist, luciferase reporter; ZF-4; 370.37 µM; relative to: vehicle control).
For `CCOC(=O)c1cccc(C(=O)c2c[nH]c3ccccc23)n1`, the Emax was 44 ± 3% (Aryl hydrocarbon receptor (AHR, Homo sapiens, UniProt P35869); reporter gene, agonist, XRE luciferase; HepG2; relative to: ITE).
The fold enrichment of `CCCCC[S+]([O-])c1n[nH]c(N)n1` (stereo not shown) is reported as 0.874 (Huntingtin (HTT, Homo sapiens, UniProt P42858); binding, affinity selection mass spectrometry; relative to: other proteins in batch).
`CCn1ccnc1CC1COc2ccccc2O1` (stereo not shown) has an IC50 ratio of 1.77 (Alpha-2B adrenergic receptor (ADRA2B, Homo sapiens, UniProt P18089); TGFα shedding; relative to: α2A over α2B).
The inhibition of `CC[C@@H]1[C@H](F)C(=O)N[C@@H]1COc1nccc2cc(C(N)=O)c(OC)cc12` is reported as 0.742% (Serine/threonine-protein kinase greatwall (MASTL, Homo sapiens, UniProt Q96GX5); ATP-site probe binding, ActivX profiling; THP-1 cell lysate; 0.04 mM, Lys1 site).
With `O=c1nc(SCc2cc(F)cc(C(F)(F)F)c2)nc(SCc2ccc3nc(Cl)ccc3c2)[nH]1` the relaxed DNA was 99.6% (DNA topoisomerase 2-alpha (TOP2A, Homo sapiens, UniProt P11388); DNA relaxation; 7.8 µM, replicate 2).
The degradation of `O=C(COc1ccc(C2CCC(=O)NC2=O)cc1)NCCCCCCN1CCc2c(c3ccccc3n2Cc2ccc(C(=O)NO)cc2)C1` (stereo not shown) is reported as 30% (Protein deacetylase HDAC6 (HDAC6, Homo sapiens, UniProt Q9UBN7); degrader, western blot; MM1.S; 5 µM, 24 h).
`Nc1nc2c(ncn2[C@@H]2O[C@H](COP(=O)(O)O)[C@@H](O)[C@H]2O)c(=O)[nH]1` has a -TΔS of 0.532 kcal/mol (GUK1 (Homo sapiens, UniProt Q16774, S13A); binding, ITC).
`Cc1cc(NS(=O)(=O)c2ccc(N)cc2)no1` — result for “melting temperature shift”: 2 °C (Dihydropteroate synthase (folP, Bacteria, UniProt P0AC13); CETSA HiBiT; Escherichia coli, whole cells; concentration not given; relative to: DMSO).
With `CC(C)C[C@H](NC(=O)[C@H](CCc1ccccc1)NC(=O)CN1CCOCC1)C(=O)N[C@@H](Cc1ccccc1)C(=O)N[C@@H](CC(C)C)C(=O)[C@@]1(C)CO1` the reversibility was 3 ± 1% (Proteasome component C5/PSMB8 (Homo sapiens, UniProt P20618+P28062); inhibitor, jump dilution; 1 h).
`CCCCCCCCCCCCC/C=C/[C@@H](O)[C@H](CO)NC(=O)CCCCCCCCCCCCCCCCCCCCCCCCC` — result for “lipid fraction bound”: 11.7% (Protein SET (SET, Homo sapiens, UniProt Q01105); lipid binding, GFP pull-down LC-MS/MS; A549 overexpressing GFP-tagged protein; relative to: eluate plus flow-through).
For `COc1cc(C#CC(=O)CC(C)C)ccc1O`, the binding was 84% (mvfR (Pseudomonas aeruginosa, UniProt Q9I4X0); receptor binding; concentration not given, 1.5 h, added: PQS at 1:1 ratio; relative to: control).
`O=C(O)c1ccc(Nc2ncc3c(n2)-c2ccc(Cl)cc2C(c2c(F)cccc2F)=NC3)cc1` gave a remaining activity of 92% (CK1γ1(h); kinase activity; 1 µM).
For `C=CC(=O)N1CCC[C@@H](n2nc(-c3ccc(Oc4ccccc4)cc3)c3c(N)ncnc32)C1`, the remaining activity was 65% ([Pyruvate dehydrogenase (acetyl-transferring)] kinase isozyme 4, mitochondrial (PDK4, Homo sapiens, UniProt Q16654); 1 µM).
`O=C(O)C1=CCNCC1` has an agonist score of 0.91 (GABA-A receptor; alpha-1/beta-2/gamma-2 (Rattus norvegicus, UniProt P18508+P62813+P63138); membrane potential, agonist, QP-DHM fluorescence; HEK293 expressing GABAA; 10 µM; relative to: 10 µM GABA, direction not given).
`Nc1ncnc2c1ncn2[C@@H]1O[C@H](COP(=O)(O)OP(=O)(O)O)[C@@H](O)[C@H]1O` gave a ΔS of -2.62 cal/mol/K (Cell cycle histidine kinase CckA, CA domain (Caulobacter vibrioides, UniProt Q9X688); binding, ITC; added: without c-di-GMP).
`CN(CCCC(F)(F)F)c1nccc(-c2cnn3ncccc23)n1` gave a remaining binding of 76% (Tyrosine-protein kinase ABL1 (ABL1, Homo sapiens, UniProt P00519, H396P); KINOMEscan; 1 µM; relative to: control).
For `Oc1ccccc1-c1n[nH]cc1-c1ccnc2ccccc12`, “log2 fold change” read -0.03 (Serine/threonine-protein kinase STE7 homolog (HST7, Candida albicans, UniProt Q5A6T5); kinase binding, MIB/MS competition; Candida albicans lysate; 1 µM; relative to: DMSO, negative = stronger binding).
With `COc1cc(Nc2ncc3c(n2)-c2ccc(Cl)cc2C(c2c(F)cccc2OC)=NC3)ccc1C(=O)O` the remaining activity was 107% (JAK2 JH1 JH2; inhibitor, biochemical kinase; 1 µM).
For `CC[C@H](C)[C@H](NC(=O)[C@H](CCCNC(=N)N)NC(=O)[C@H](Cc1c[nH]cn1)NC(=O)[C@H](CCCNC(=N)N)NC(=O)[C@H](CC(=O)O)NC(=O)[C@@H](N)CC(=O)O)C(=O)N[C@@H](CCC(=O)O)C(=O)N[C@@H](CCC(=O)O)C(=O)N[C@@H](CCCCN)C(=O)N[C@@H](CCCNC(=N)N)C(=O)N[C@@H](CCCCN)C(=O)N[C@@H](CCCNC(=N)N)C(=O)N[C@H](C(=O)N[C@@H](Cc1ccc(O)cc1)C(=O)N[C@@H](CCC(=O)O)C(=O)N[C@H](C(=O)N[C@@H](Cc1ccccc1)C(=O)N[C@@H](CCCCN)C(=O)N[C@@H](CO)C(=O)N[C@H](C(=O)N[C@@H](CCSC)C(=O)N[C@@H](CCCCN)C(=O)N[C@@H](CCCCN)C(=O)N[C@@H](CO)C(=O)N1CCC[C@H]1C(=O)N[C@@H](Cc1ccccc1)C(=O)N[C@@H](CC(N)=O)C(=O)NCC(=O)N1CCC[C@H]1C(=O)O)[C@@H](C)CC)[C@@H](C)O)[C@@H](C)O`, the -TΔS was -4.4 ± 0.2 kcal/mol (NF-kappa-B inhibitor alpha; binding, ITC; pH 7.5, 293 K, 50 mM NaCl).
For `Cn1c2c(Cl)c(Cl)ccc2c2cc(N)[nH]c(=O)c21`, the delta Tm was 0.1 °C (Serine/threonine-protein kinase VRK3 (VRK3, Homo sapiens, UniProt Q8IV63); thermal stability, thermal shift; 10 µM; higher = stronger binding).
With `CC(=O)N[C@H]1C(OCCOP(=O)(O)OC[C@H]2O[C@@H](n3ccc(=O)[nH]c3=O)[C@H](O)[C@@H]2O)O[C@H](CO)[C@@H](O)[C@@H]1O` (stereo partly shown) the relative activity was 0.877 (Alpha-1,6-mannosyl-glycoprotein 2-beta-N-acetylglucosaminyltransferase (Mus musculus, UniProt Q921V5); enzyme activity, HPLC; 2500 µM, added: UDP-GlcNAc 0.5 mM; relative to: no compound).
With `CN(C)c1ncc(F)c(-c2cnn3ncccc23)n1` the remaining binding was 65% and 100% (Tyrosine-protein kinase ABL1 (ABL1, Homo sapiens, UniProt P00519, F317L); KINOMEscan; 1 µM; relative to: control).
For `CCNC(=O)/C=C/c1cccc(Br)c1`, “remaining transport activity” read 0.0746 (Sodium-dependent neutral amino acid transporter B(0)AT1 (SLC6A19, Homo sapiens, UniProt Q695T7); inhibitor, FLIPR membrane potential; CHO-BC cells; 30 µM, unit not given; relative to: no inhibitor).
`CC(=C/C(=O)O)/C=C/C=C(\C)C1C=C2C(C)(C)CCCC2(C)O1` (stereo not shown): “Pearson correlation coefficient” 0.43 (Rhodopsin (RHO, Homo sapiens, UniProt P08100, E181K); ER retention, immunostaining co-localization, refers to: opsin with calnexin; COS-7 transfected E181K; 30.00 µM).
With `COc1ccnn2ncc(-c3ccnc(N(C)C)n3)c12` the remaining binding was 85% (Tyrosine-protein kinase ABL1 (ABL1, Homo sapiens, UniProt P00519, Q252H); KINOMEscan; 1 µM; relative to: control).
With `CC(=O)c1ccccc1O` the Emax was 82 ± 6% (Or8a1 (Mus musculus, UniProt Q60893); odorant-evoked current, agonist; isolated olfactory neurons; relative to: acetophenone saturated response).
With `CN1C(=O)/C(=C2\Nc3ccccc3\C2=N/O)c2ccc(Br)cc21` the fold change was 23.8 (Aryl hydrocarbon receptor; reporter gene, agonist, luciferase reporter; ZF-4; 4 µM; relative to: vehicle control).
`COc1cc(-c2cc(C(C)=O)n3ccccc23)c(OC)cc1Cn1ccnc1` has a ΔTm of 5.9 °C (Histone acetyltransferase p300 (EP300, Homo sapiens, UniProt Q09472)).
The fold change of `Cc1cc2ccccc2c2ccc3ccccc3c12` is reported as 4.94 (Aryl hydrocarbon receptor; reporter gene, agonist, luciferase reporter; ZF-4; 10000 µM; relative to: vehicle control).
For `O=c1c(Oc2ccccc2)c(C(F)(F)F)oc2c3c(ccc12)OCCO3`, “E3 ligase activity” read “no inhibition” (Cullin-1, C-terminal domain with ROC1 (Homo sapiens, UniProt Q13616); inhibitor; up to 80 µM).

Excerpt of the above:
`Cc1cc(NS(=O)(=O)c2ccc(N)cc2)no1` — result for “melting temperature shift”: 2 °C (Dihydropteroate synthase (folP, Bacteria, UniProt P0AC13); CETSA HiBiT; Escherichia coli, whole cells; concentration not given; relative to: DMSO).
With `CC(C)C[C@H](NC(=O)[C@H](CCc1ccccc1)NC(=O)CN1CCOCC1)C(=O)N[C@@H](Cc1ccccc1)C(=O)N[C@@H](CC(C)C)C(=O)[C@@]1(C)CO1` the reversibility was 3 ± 1% (Proteasome component C5/PSMB8 (Homo sapiens, UniProt P20618+P28062); inhibitor, jump dilution; 1 h).
`CCCCCCCCCCCCC/C=C/[C@@H](O)[C@H](CO)NC(=O)CCCCCCCCCCCCCCCCCCCCCCCCC` — result for “lipid fraction bound”: 11.7% (Protein SET (SET, Homo sapiens, UniProt Q01105); lipid binding, GFP pull-down LC-MS/MS; A549 overexpressing GFP-tagged protein; relative to: eluate plus flow-through).
For `COc1cc(C#CC(=O)CC(C)C)ccc1O`, the binding was 84% (mvfR (Pseudomonas aeruginosa, UniProt Q9I4X0); receptor binding; concentration not given, 1.5 h, added: PQS at 1:1 ratio; relative to: control).
`O=C(O)c1ccc(Nc2ncc3c(n2)-c2ccc(Cl)cc2C(c2c(F)cccc2F)=NC3)cc1` gave a remaining activity of 92% (CK1γ1(h); kinase activity; 1 µM).
For `C=CC(=O)N1CCC[C@@H](n2nc(-c3ccc(Oc4ccccc4)cc3)c3c(N)ncnc32)C1`, the remaining activity was 65% ([Pyruvate dehydrogenase (acetyl-transferring)] kinase isozyme 4, mitochondrial (PDK4, Homo sapiens, UniProt Q16654); 1 µM).
